Measured values of several laboratories.
Parts stem from different laboratories: compare values within a part only. Substitutions count along the parent as printed.

Block 1 — method: RNA Bind-n-Seq; molecule type: RNA; matrix: in vitro; tested at: not given; relative to: input RNA pool; direction: higher = stronger binding
Target: RING finger protein unkempt homolog, zinc fingers 1-6, GST-SBP tag (UNK, Homo sapiens, UniProt Q9C0B0, residues 30-357)
Chain of UniProt Q9C0B0 (30-357, looked up): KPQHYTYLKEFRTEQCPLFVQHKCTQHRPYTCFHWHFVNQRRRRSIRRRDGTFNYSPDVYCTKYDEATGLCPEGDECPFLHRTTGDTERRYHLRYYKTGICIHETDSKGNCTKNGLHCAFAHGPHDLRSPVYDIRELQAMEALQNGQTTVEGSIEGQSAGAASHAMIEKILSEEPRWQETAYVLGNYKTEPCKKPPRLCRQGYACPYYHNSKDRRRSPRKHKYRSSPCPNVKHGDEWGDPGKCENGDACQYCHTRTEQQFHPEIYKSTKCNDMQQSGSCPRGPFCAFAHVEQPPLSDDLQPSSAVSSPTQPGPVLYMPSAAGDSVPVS
Notes: RNA with constant flanks, human-mouse chimeric sites, ends assumed
`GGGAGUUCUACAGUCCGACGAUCCUGAGGAUACCACUGAAGAGACCUUAAAAGAAUCAUUUUGACGGCUCCGUUCGGGCAGAAUAGUCACUGAUCGGGAAACUGGUUCUUCCAAAGGGUUUGGUUUUGUAGACUUUAAUAGUGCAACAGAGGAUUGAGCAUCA` gave a bound/input enrichment of 0.799 ratio.
`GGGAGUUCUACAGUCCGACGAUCGCCACCAGAUCCCAGAAACAUGACCCUUGCAGCCUAUAAAGAGAAGAUGAAGGAGCUCCCGCUGGUGUCUCUGUUCUGCUCCUGCUUCCUGGCCGAUCCCCUGAAUAAGUCGUCCUACAACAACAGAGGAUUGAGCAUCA` has a bound/input enrichment of 0.317 ratio.
`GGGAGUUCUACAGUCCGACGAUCUGUGCAUAUGAUGCUUGAGAUGGUUUUUGCAAAAGCAGAAAUCGCUGCAAGGUAAUCCUAAUAGAGACAAGCGGUAUUUUAAACCUUUGAAAUAAAUGGAUGUAACUGUACCUUGGUACACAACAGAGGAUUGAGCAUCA` has a bound/input enrichment of 0.334 ratio.
For `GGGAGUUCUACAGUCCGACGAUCCUGGCCUGGCCCUCCCCAGGGGCCUCCUUUCGUAUAGUAACUGUCAGUGCAUCAGAUACUUUCAGCUGCAACUCCCUACUGGGUGGGGCACCUAUCUCAGGCAGAAGGUUUUGGUACCCUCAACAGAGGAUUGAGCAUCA`, the bound/input enrichment was 0.288 ratio.
The bound/input enrichment of `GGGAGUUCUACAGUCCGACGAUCCUGUGACUGAUGGCAGCUACCUGAGUGGCAGCUGAAGUUGACUCCCUCUCCUUGCCUGAACCCCCCCCUUUUGUUCCCCCAUCCCCCAGUGUCGGCUGAGAUGUUGCCUCUGCACGGUUCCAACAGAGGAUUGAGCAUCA` is reported as 0.962 ratio.
`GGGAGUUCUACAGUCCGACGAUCAUAAAGGCUAUGUUGAGUGGUCCAGGUCAGUUUGCUGAGAACGAAACCAACGAGGUCAAUUUUAGAGAGAUACCUUCACAUGUGCUAUCAAAAGUGUGCAUGUAUUUUACCUACAAGGUCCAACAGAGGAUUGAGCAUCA` has a bound/input enrichment of 0.0879 ratio.

Block 2 — method: universal PBM; molecule type: double-stranded DNA, one strand shown; matrix: in vitro; tested at: 600 nM; direction: higher = stronger binding
Target: Sal-like protein 4, full length isoform A (SALL4, Homo sapiens, UniProt Q9UJQ4, residues 1-1053)
Chain of UniProt Q9UJQ4 (whole entry, looked up): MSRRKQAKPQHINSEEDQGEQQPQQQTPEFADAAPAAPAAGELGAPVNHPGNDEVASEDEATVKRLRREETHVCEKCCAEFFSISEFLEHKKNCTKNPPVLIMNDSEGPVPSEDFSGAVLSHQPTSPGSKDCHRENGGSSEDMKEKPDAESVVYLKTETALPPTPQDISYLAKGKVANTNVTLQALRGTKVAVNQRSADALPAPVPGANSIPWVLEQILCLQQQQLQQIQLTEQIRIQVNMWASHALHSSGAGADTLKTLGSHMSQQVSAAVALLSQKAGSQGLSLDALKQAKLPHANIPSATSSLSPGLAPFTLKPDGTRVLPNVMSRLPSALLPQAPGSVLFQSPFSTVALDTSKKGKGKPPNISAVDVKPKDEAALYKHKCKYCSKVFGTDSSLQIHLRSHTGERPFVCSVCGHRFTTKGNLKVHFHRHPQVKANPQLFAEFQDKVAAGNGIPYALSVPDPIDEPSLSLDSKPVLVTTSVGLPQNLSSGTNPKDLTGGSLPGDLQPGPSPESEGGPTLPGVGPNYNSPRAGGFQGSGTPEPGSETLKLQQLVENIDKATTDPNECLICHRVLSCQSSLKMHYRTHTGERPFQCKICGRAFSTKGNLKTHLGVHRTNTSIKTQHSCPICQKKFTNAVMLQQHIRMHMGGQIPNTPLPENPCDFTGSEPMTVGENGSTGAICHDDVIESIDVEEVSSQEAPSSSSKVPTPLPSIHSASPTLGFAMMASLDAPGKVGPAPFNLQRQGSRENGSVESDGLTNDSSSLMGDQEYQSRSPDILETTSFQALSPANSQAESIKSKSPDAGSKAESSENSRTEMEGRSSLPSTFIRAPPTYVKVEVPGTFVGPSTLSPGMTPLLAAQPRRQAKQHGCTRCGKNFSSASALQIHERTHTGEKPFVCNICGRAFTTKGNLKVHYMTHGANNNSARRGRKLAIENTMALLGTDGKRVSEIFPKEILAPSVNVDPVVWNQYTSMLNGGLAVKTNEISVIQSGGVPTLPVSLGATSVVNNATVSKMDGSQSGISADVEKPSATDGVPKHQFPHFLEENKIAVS
Notes: 8-mer, flanks averaged, mean of replicates
For `GTGTACCA`, the E-score was 0.0136.
For `ATCGCAAA`, the E-score was 0.188.
With `AAGTCGGC` the E-score was -0.273.
With `GGGTAAGA` the E-score was -0.0596.
`GTGGACAA` gave an E-score of 0.04.
`AGCTGTAT` has an E-score of 0.129.
`AGGAGCAC` has an E-score of -0.12.
For `GACAGGAA`, the E-score was 0.0806.
With `AGCCCATA` the E-score was 0.0636.
For `AACCGTCT`, the E-score was -0.124.
`AAATCCCT` gave an E-score of -0.013.
`CTAGTAGA` gave an E-score of 0.127.
`CCGCTGCC` gave an E-score of -0.259.
`AAACGCCT` has an E-score of -0.0608.
`GAGTTAGC` gave an E-score of 0.0456.
The E-score of `ATAAACTC` is reported as 0.286.

Block 3 — target: CCNA2, cyclin fold, Cln2 fusion (human); method: yeast growth competition, sequencing; matrix: yeast; notes: strong parent motif; relative to: not given; direction: higher = stronger binding
Starting sequence: CDC6 docking peptide (human); TLKGRRLVFDNQL; partner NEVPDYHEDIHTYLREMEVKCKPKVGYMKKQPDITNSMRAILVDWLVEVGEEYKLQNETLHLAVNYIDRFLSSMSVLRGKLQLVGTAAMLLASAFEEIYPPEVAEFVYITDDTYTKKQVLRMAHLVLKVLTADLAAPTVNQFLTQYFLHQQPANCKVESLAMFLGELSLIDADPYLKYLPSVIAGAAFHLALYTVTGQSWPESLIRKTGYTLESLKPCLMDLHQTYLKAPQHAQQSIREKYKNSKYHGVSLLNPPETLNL
`TLKGRRLVFCNQL [D10C]`: “normalised enrichment score” 2.4.
`TLKMRRLVFDNQL [G4M]`: “normalised enrichment score” 2.56.
`TLLGRRLVFDNQL [K3L]` — result for “normalised enrichment score”: 1.95.
For `TLKARRLVFDNQL [G4A]`, “normalised enrichment score” read 3.64.
For `TLKGRRLCFDNQL [V8C]`, “normalised enrichment score” read 3.45.
Under “normalised enrichment score”, `TNKGRRLVFDNQL [L2N]` is recorded as 1.7.
Under “normalised enrichment score”, `TLKGRRLVKDNQL [F9K]` is recorded as 1.81.
`TLKGRRLVFDTQL [N11T]`: “normalised enrichment score” 3.19.
`TLKGRRTVFDNQL [L7T]` — result for “normalised enrichment score”: 0.498.
Under “normalised enrichment score”, `TIKGRRLVFDNQL [L2I]` is recorded as 2.1.
`TLKGRRLVLDNQL [F9L]` — result for “normalised enrichment score”: 1.24.
For `TLKGRRLVFDVQL [N11V]`, “normalised enrichment score” read 2.63.
`TLKCRRLVFDNQL [G4C]` — result for “normalised enrichment score”: 3.51.
For `TLKGRREVFDNQL [L7E]`, “normalised enrichment score” read 0.637.
Under “normalised enrichment score”, `TLKGRRLVFDNQE [L13E]` is recorded as 3.22.
For `TLKDRRLVFDNQL [G4D]`, “normalised enrichment score” read 0.69.
`TLKGRILVFDNQL [R6I]` — result for “normalised enrichment score”: 0.13.

Block 4 — method: DHFR PCA, deep sequencing; matrix: yeast; together with: (+)-ABA 17 µM; relative to: wild-type fitted maximum; direction: higher = stronger binding
Target: ABI1, truncated, D143A, DHFR fusion (Arabidopsis thaliana)
Notes: methotrexate growth selection, single substitutions
Starting sequence: PYL1, truncated, DHFR fusion (Arabidopsis thaliana); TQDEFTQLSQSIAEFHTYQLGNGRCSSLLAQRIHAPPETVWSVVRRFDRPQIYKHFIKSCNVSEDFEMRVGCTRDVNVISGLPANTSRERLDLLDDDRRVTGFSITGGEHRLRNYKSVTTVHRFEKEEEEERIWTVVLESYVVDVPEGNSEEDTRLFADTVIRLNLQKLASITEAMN; partner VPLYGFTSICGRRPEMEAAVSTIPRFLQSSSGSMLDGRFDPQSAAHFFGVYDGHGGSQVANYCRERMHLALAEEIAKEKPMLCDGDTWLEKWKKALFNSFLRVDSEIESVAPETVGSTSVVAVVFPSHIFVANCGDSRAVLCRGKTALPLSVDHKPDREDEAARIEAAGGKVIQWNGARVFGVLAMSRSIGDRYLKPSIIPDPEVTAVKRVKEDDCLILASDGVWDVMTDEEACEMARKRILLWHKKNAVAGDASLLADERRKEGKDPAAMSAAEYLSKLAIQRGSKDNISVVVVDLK
Under “relative binding score”, `Y115V` is recorded as 6.98%.
`N61A` — result for “relative binding score”: 84.3%.
Under “relative binding score”, `S140D` is recorded as -21.3%.
`T73F`: “relative binding score” 87.6%.
`E127K`: “relative binding score” 95.5%.
`V44N` — result for “relative binding score”: -20.5%.
Under “relative binding score”, `A170K` is recorded as 90.3%.
`S9R` — result for “relative binding score”: 85.4%.
`E127N` — result for “relative binding score”: 84.2%.
`S27C`: “relative binding score” 32.1%.
`D92S`: “relative binding score” 14.8%.
For `V43W`, “relative binding score” read 6.5%.
`T17P` — result for “relative binding score”: -15.9%.
`I52F` — result for “relative binding score”: 73%.

Block 5 — method: protein binding microarray; molecule type: double-stranded DNA, one strand shown; matrix: in vitro; tested at: not given; relative to: not given; direction: higher = stronger binding
Target: Histone acetyltransferase KAT6A, winged helix 1, GST fusion (KAT6A, Homo sapiens, UniProt Q92794, residues 1-85)
Notes: 8-mer, flanks averaged, mean of 2 arrays, mostly near background
Residues (chain): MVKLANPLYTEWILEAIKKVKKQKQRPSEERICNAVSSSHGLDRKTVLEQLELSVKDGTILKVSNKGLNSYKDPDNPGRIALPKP
`CCTGCCAG` gave an E-score of -0.312.
For `CGGGAGCA`, the E-score was 0.144.
`GACCTGGC` gave an E-score of -0.138.
`GGCGGTAA` gave an E-score of 0.383.
`ACTCATAG` has an E-score of -0.128.
For `ATGATCTG`, the E-score was -0.259.
For `GAGTCCAC`, the E-score was -0.0381.
The E-score of `AGACGCTG` is reported as -0.116.
The E-score of `GGGTACAC` is reported as 0.215.
The E-score of `ATGAACCG` is reported as 0.102.
`AACGAGTG` has an E-score of -0.287.
With `GAGACCAC` the E-score was -0.0946.
The E-score of `GCCATAGA` is reported as 0.00709.

Excerpt of the above (block 4):
`I52F` — result for “relative binding score”: 73%.
`V44N` — result for “relative binding score”: -20.5%.
`E127K`: “relative binding score” 95.5%.
`T73F`: “relative binding score” 87.6%.
Under “relative binding score”, `A170K` is recorded as 90.3%.
Under “relative binding score”, `Y115V` is recorded as 6.98%.
Under “relative binding score”, `S140D` is recorded as -21.3%.
`D92S`: “relative binding score” 14.8%.
